Experimental data pooled from the literature.
Numbered parts are unrelated; each lists some results of a single study. “And” joins repeats or separate records; there may be more than shown.

Block 1
SMILES: C[C@@H]1CN(c2ccc(-c3cc(C(=O)NCCOCCOCCOCCOCCOCCOCCNC(=O)/C=C/c4[nH]cc(C(=O)N[C@@H](CC(N)=O)c5ccc(F)c(Cl)c5)c4-c4ccc(Cl)cc4F)ccc3F)cc2NC(=O)c2ccc(F)cc2C(F)(F)F)C[C@H](C)N1C
Effect on: thermal unfolding
Method: differential scanning fluorimetry
Tested at: 5.5 µM
Direction: higher = more unfolded
WDR5: WD repeat-containing protein 5 (WDR5, Homo sapiens, UniProt P61964)
DCAF1: DDB1- and CUL4-associated factor 1 (DCAF1, Homo sapiens, UniProt Q9Y4B6)
Chain of UniProt Q9Y4B6 (whole entry, looked up): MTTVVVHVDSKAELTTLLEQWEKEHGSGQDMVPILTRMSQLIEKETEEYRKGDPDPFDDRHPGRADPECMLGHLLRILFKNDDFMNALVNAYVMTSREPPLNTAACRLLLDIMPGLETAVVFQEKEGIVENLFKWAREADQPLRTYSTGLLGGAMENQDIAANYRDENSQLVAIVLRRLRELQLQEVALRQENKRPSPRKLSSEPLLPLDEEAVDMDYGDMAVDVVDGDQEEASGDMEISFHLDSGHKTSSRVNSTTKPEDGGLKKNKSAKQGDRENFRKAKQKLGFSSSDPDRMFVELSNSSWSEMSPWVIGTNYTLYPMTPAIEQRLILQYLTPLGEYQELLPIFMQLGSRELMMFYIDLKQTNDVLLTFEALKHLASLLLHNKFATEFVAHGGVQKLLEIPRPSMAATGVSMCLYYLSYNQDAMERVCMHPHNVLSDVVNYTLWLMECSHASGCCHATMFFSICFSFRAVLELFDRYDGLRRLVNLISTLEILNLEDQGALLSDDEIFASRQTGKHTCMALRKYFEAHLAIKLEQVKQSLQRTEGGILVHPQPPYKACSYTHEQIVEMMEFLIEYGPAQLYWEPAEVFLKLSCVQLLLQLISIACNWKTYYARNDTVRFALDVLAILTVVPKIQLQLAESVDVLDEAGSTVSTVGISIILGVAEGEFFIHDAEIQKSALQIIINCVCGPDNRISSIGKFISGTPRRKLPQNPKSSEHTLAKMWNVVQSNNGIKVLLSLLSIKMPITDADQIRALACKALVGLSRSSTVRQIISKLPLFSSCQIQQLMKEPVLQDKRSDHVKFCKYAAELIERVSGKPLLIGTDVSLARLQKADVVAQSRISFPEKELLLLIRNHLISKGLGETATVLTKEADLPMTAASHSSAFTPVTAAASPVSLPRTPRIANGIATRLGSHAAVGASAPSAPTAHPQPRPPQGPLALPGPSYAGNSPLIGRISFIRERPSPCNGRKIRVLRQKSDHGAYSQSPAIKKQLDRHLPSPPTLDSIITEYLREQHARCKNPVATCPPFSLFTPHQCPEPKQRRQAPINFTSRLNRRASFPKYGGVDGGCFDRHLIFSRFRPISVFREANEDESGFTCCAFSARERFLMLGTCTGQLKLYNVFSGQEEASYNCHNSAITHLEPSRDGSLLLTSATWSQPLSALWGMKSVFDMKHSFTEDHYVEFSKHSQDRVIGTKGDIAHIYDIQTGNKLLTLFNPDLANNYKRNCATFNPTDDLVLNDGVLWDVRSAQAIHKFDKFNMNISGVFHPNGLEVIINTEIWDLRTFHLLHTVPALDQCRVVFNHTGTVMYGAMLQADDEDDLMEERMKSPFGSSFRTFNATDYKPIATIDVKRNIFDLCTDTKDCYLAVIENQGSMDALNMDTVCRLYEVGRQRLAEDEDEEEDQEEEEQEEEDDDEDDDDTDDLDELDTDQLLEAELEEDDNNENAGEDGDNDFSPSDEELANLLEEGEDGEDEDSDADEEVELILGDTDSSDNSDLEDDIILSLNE
The “SYPRO Orange fluorescence” was 61500 a.u. (WDR5; 85.41 °C).
The “SYPRO Orange fluorescence” was 14300 a.u. (WDR5; 41.4 °C).
It gave 51000 a.u. for “SYPRO Orange fluorescence” (DCAF1; 67.41 °C).
It gave 65600 a.u. for “SYPRO Orange fluorescence” (WDR5; 82.21 °C).
For DCAF1; 39.8 °C: “SYPRO Orange fluorescence” read 11300 a.u.
For WDR5; 71.81 °C: “SYPRO Orange fluorescence” read 34700 a.u.
The “SYPRO Orange fluorescence” was 29700 a.u. (DCAF1; 93.61 °C).
For WDR5; 45.4 °C: “SYPRO Orange fluorescence” read 14600 a.u.
The “SYPRO Orange fluorescence” was 28900 a.u. (DCAF1; 94.61 °C).
The “SYPRO Orange fluorescence” was 14500 a.u. (WDR5; 42.8 °C).
For DCAF1; 34 °C: “SYPRO Orange fluorescence” read 9530 a.u.

Block 2
Compound: COc1cc(C(=O)OCCCN2CCCN(CCCOC(=O)c3cc(OC)c(OC)c(OCc4ccc([N+](=O)[O-])cc4)c3)CC2)cc(OC)c1OC
Method: electrocardiography
For mice; intravenous, 30 mg/kg, 10 min: heart rate read 370 beats/min and 459 beats/min and 590 beats/min and 397 beats/min and 587 beats/min and 441 beats/min.
mouse; intraperitoneal, 30 mg/kg, 30 min — heart rate: 635 beats/min and 610 beats/min and 557 beats/min.
It gave 550 beats/min and 635 beats/min and 560 beats/min for heart rate (mice; intraperitoneal, 30 mg/kg, 10 min).
It gave 548 beats/min and 464 beats/min and 364 beats/min and 586 beats/min and 547 beats/min and 408 beats/min for heart rate (mouse; intravenous, 30 mg/kg, 30 min).
It gave 578 beats/min and 658 beats/min and 598 beats/min for heart rate (mouse; intraperitoneal, 10 mg/kg, before dosing).
mice; intraperitoneal, 10 mg/kg, 30 min — heart rate: 628 beats/min and 561 beats/min and 580 beats/min.

Block 3
Structure (SMILES): CCCNC(=O)COc1ccc(I)c(C)c1
Target: Sodium-dependent neutral amino acid transporter B(0)AT1 (SLC6A19, Homo sapiens, UniProt Q695T7)
Chain of UniProt Q695T7 (whole entry, looked up): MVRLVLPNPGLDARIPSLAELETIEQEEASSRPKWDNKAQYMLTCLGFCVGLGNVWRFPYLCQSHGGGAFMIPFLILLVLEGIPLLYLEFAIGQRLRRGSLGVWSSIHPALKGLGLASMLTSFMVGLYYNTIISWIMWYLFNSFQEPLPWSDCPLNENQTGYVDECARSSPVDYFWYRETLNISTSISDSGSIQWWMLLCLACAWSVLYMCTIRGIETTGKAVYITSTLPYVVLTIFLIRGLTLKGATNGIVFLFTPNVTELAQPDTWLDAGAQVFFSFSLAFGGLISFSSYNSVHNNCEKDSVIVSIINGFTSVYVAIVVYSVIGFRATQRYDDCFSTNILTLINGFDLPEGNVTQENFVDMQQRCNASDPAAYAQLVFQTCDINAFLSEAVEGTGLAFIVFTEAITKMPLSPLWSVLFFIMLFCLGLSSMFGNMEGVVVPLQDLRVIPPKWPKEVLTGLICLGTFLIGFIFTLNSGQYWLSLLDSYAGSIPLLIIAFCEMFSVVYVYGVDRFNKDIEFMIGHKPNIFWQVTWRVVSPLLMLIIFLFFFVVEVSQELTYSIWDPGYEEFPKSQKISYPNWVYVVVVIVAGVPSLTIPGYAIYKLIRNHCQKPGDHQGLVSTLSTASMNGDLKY
Action: inhibitor
Cells: CHO-BC cells
Setting: unit not given
Reference: uninhibited cells
For FLIPR membrane potential; 0.03 µM: “remaining transport activity” read 0.653.
The “remaining transport activity” was 0.725 (FLIPR membrane potential; 0.003 µM).
It gave 0.841 for “remaining transport activity” (L-[14C]leucine uptake; 0.01 µM, 6 min, 37 °C, added: GPNA 3 mM, JPH203 3 µM).

Block 4
Cell line: MDA-MB-468
Effect on: cell viability
Method: CellCounting-Lite
Tested at: 2000 nM
Temperature: 37 °C
Direction: higher = more viable cells
For `CCn1cnc2c(NCc3nc4cc(Cl)c(Cl)cc4[nH]3)nc(N3CCN(c4ccccn4)CC3)nc21`, the luminescence signal was 47600 a.u. and 42900 a.u. and 33300 a.u.
The luminescence signal of `CCn1cnc2c(NCc3nc4cc(Cl)c(Cl)cc4[nH]3)nc(N3CCN(C(C)=O)CC3)nc21` is reported as 34400 a.u. and 33400 a.u. and 28500 a.u.
With `CCn1cnc2c(NCc3nc4cc(Cl)c(Cl)cc4[nH]3)nc(N3CCN(C(=O)[C@H](C)NC(C)=O)CC3)nc21` the luminescence signal was 50600 a.u. and 40400 a.u. and 47700 a.u.
The luminescence signal of `CCn1cnc2c(NCc3nc4cc(Cl)c(Cl)cc4[nH]3)nc(N3CCN(C(=O)c4ccccc4)CC3)nc21` is reported as 34000 a.u. and 33800 a.u. and 29300 a.u.
`CC(=O)N1CCN(c2nc(NCc3nc4cc(Cl)c(Cl)cc4[nH]3)c3ncn(C)c3n2)CC1` gave a luminescence signal of 43700 a.u. and 35800 a.u. and 39700 a.u.
For `CCn1cnc2c(NCc3nc4cc(Cl)c(Cl)cc4[nH]3)nc(N3CCC(NC(C)=O)CC3)nc21`, the luminescence signal was 40400 a.u. and 38000 a.u. and 39600 a.u.
For `CCn1cnc2c(NCc3nc4cc(Cl)c(Cl)cc4[nH]3)nc(N3CCN(C(=O)c4ccncc4)CC3)nc21`, the luminescence signal was 33600 a.u. and 35200 a.u. and 42700 a.u.
`CCn1cnc2c(NCc3nc4cc(Cl)c(Cl)cc4[nH]3)nc(N3CCN(C(=O)CNC(C)=O)CC3)nc21` gave a luminescence signal of 42400 a.u. and 33800 a.u. and 44200 a.u.
The luminescence signal of `CCn1cnc2c(NCc3nc4cc(Cl)c(Cl)cc4[nH]3)nc(N3CCN(C(=O)c4cccnc4)CC3)nc21` is reported as 31500 a.u. and 29900 a.u. and 34300 a.u.
`CCn1cnc2c(NCc3nc4ccc(F)c(F)c4[nH]3)nc(N3CCn4ncnc4C3)nc21` has a luminescence signal of 42400 a.u. and 35800 a.u. and 38500 a.u.
`CCn1cnc2c(NCc3nc4cc(F)c(F)cc4[nH]3)nc(N3CCn4ncnc4C3)nc21` gave a luminescence signal of 34900 a.u. and 35700 a.u. and 33000 a.u.
With `CC(=O)N1CCN(c2nc(NCc3nc4cc(Cl)c(Cl)cc4[nH]3)c3ncn(C(C)C)c3n2)CC1` the luminescence signal was 380000 a.u. and 405000 a.u. and 412000 a.u.
The luminescence signal of `CC(=O)N1CCN(c2nc(NCc3nc4cc(Cl)c(Cl)cc4[nH]3)c3ncn(-c4cnn(C)c4)c3n2)CC1` is reported as 38300 a.u. and 34100 a.u. and 34500 a.u.
For `CCCCOc1nc(NCc2nc3cc(Cl)c(Cl)cc3[nH]2)c2ncn(CC)c2n1`, the luminescence signal was 39500 a.u. and 46700 a.u. and 40000 a.u.
With `CCn1cnc2c(NCc3nc4cc(Cl)c(Cl)cc4[nH]3)nc(N3CCN(C(=O)c4ccccn4)CC3)nc21` the luminescence signal was 39400 a.u. and 32300 a.u. and 44200 a.u.
The luminescence signal of `CCn1cnc2c(NCc3nc4cc(Cl)c(Cl)cc4[nH]3)nc(N3CCn4ncnc4C3)nc21` is reported as 34800 a.u. and 31800 a.u. and 37400 a.u.
For `CCn1cnc2c(NCc3nc4cc(Cl)c(Cl)cc4[nH]3)nc(N3CCN(Cc4ccncc4)CC3)nc21`, the luminescence signal was 37400 a.u. and 34200 a.u. and 38800 a.u.
`CCn1cnc2c(NCc3nc4cc(Cl)c(Cl)cc4[nH]3)nc(N3CCN(S(C)(=O)=O)CC3)nc21` has a luminescence signal of 44700 a.u. and 35700 a.u. and 44400 a.u.

Block 5
Organism: Arabidopsis thaliana
Strain: Col-0
Tested at: 12.5 µg/mL
Setting: seed germination, single repetition
`CC(C)(C)c1ccc(Oc2ccc3c(c2)OC(O)(C(=O)O)C(=O)N3Cc2ccccc2)cc1` (centres unmarked) gave a hypocotyl length of 2 cm and 1.78 cm and 1.82 cm and 1.83 cm.
`O=C(O)C1(O)Oc2cc(F)ccc2N(Cc2ccccc2)C1=O` (centres unmarked) has a hypocotyl length of 1.3 cm and 1.35 cm and 1.36 cm and 1.38 cm.
`O=C(O)C1Oc2cc(F)ccc2N(Cc2ccccc2)C1=O` (centres unmarked) gave a hypocotyl length of 2.09 cm and 2.1 cm and 2 cm and 2.11 cm and 2.16 cm.
`O=C(O)C1(O)Oc2cc(Cl)ccc2N(Cc2ccccc2)C1=O` (centres unmarked) has a hypocotyl length of 2.03 cm and 2 cm and 2.02 cm and 2.08 cm and 2.04 cm.
For `CCCN1C(=O)C(O)(C(=O)O)Oc2cc(F)ccc21` (centres unmarked), the hypocotyl length was 1.88 cm and 1.85 cm and 1.76 cm and 1.87 cm and 1.9 cm.

Single results of other studies
`CCN1/C(=C/C=C2\CCCC(/C=C/C3=[N+](CC)c4ccccc4C3(C)C)=C2NCCCCCCCCN2CCC(Nc3nc4ccccc4n3Cc3ccc(F)cc3)CC2)C(C)(C)c2ccccc21` — result for “fluorescence quantum yield”: 1.5 (PBS; 10 µM; reference: Cy5).

For quick reference, copied from above (block 4):
With `CCn1cnc2c(NCc3nc4cc(Cl)c(Cl)cc4[nH]3)nc(N3CCN(C(=O)[C@H](C)NC(C)=O)CC3)nc21` the luminescence signal was 50600 a.u. and 40400 a.u. and 47700 a.u.
The luminescence signal of `CCn1cnc2c(NCc3nc4cc(Cl)c(Cl)cc4[nH]3)nc(N3CCN(C(=O)c4ccccc4)CC3)nc21` is reported as 34000 a.u. and 33800 a.u. and 29300 a.u.
`CC(=O)N1CCN(c2nc(NCc3nc4cc(Cl)c(Cl)cc4[nH]3)c3ncn(C)c3n2)CC1` gave a luminescence signal of 43700 a.u. and 35800 a.u. and 39700 a.u.
For `CCn1cnc2c(NCc3nc4cc(Cl)c(Cl)cc4[nH]3)nc(N3CCC(NC(C)=O)CC3)nc21`, the luminescence signal was 40400 a.u. and 38000 a.u. and 39600 a.u.
For `CCn1cnc2c(NCc3nc4cc(Cl)c(Cl)cc4[nH]3)nc(N3CCN(C(=O)c4ccncc4)CC3)nc21`, the luminescence signal was 33600 a.u. and 35200 a.u. and 42700 a.u.
`CCn1cnc2c(NCc3nc4cc(Cl)c(Cl)cc4[nH]3)nc(N3CCN(C(=O)CNC(C)=O)CC3)nc21` gave a luminescence signal of 42400 a.u. and 33800 a.u. and 44200 a.u.
The luminescence signal of `CCn1cnc2c(NCc3nc4cc(Cl)c(Cl)cc4[nH]3)nc(N3CCN(C(=O)c4cccnc4)CC3)nc21` is reported as 31500 a.u. and 29900 a.u. and 34300 a.u.
